Assay results from different studies.
Each numbered part is a random draw from the data of one study; scales do not carry over between parts. Values joined by “and” are separate records of one study, mostly repeats; a detail may differ. Changes are numbered by the printed parent chain. Numbers after ± are the reported error.

Block 1
Target: CCNB2, cyclin fold, Cln2 fusion (human)
Technique: yeast growth competition, sequencing
Medium: yeast
Setting: weak parent motif
Reference: not given
Direction: higher = stronger binding
Starting sequence: viral docking peptide; KGVKRKLFAEDSS; partner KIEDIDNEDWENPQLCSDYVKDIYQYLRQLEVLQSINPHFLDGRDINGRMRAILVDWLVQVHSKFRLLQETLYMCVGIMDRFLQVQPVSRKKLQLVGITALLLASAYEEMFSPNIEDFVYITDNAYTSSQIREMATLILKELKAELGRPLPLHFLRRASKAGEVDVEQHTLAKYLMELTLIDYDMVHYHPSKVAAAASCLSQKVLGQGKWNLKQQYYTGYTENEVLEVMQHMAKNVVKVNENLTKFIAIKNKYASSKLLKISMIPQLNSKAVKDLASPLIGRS
Substitution	normalised enrichment score
K4M	0.0377
E10Q	0.5
L7V	0.525
D11K	0.523
A9H	0.918
F8L	0.433
F8K	0.497
L7S	0.368
S12R	0.614
V3Q	-0.144
F8I	0.416
F8N	0.174
G2Q	0.951
R5P	-0.27
K6A	0.614
A9I	1.2
S12P	1.14
K4Q	0.406
R5G	-0.32
A9G	0.467
D11Q	0.136
A9V	1.09
A9P	0.373
K6E	0.626
L7D	0.0784

Block 2
Target: Calcium/calmodulin-dependent protein kinase type II subunit alpha (CAMK2A, Homo sapiens, UniProt Q9UQM7)
Sequence of UniProt Q9UQM7 (whole entry, looked up): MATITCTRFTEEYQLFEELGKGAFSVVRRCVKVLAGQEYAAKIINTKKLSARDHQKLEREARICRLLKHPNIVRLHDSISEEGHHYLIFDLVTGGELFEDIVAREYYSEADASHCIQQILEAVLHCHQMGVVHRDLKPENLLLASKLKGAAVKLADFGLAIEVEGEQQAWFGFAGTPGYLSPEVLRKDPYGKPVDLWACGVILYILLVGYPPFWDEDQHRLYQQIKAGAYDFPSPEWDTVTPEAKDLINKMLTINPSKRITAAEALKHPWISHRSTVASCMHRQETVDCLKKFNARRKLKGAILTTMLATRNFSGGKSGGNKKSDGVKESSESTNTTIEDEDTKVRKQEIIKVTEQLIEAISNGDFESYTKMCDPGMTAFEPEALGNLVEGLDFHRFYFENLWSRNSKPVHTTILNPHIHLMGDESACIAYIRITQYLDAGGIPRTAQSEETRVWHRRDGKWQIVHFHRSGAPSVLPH
Effect on: enzyme activity
Action: inhibitor
Concentration: 10 µM
Compound	inhibition
C[C@]12CC[C@@H](O)C[C@@H]1CC[C@@H]1[C@@H]2CC[C@]2(C)C(=O)CC[C@@H]12	-38%
CC(=O)O[C@H]1C(C)=C[C@]23C(=O)[C@@H](C=C(C)[C@@H](OC(=O)c4ccccc4)[C@]12O)[C@H]1[C@@H](C[C@H]3C)C1(C)C	-17%
COc1cc2c(cc1O)C[C@@H]1NCCc3cc(OC)c(O)c-2c31	-21%

Block 3
SMILES: CC(=O)N[C@@H](Cc1c[nH]c2ccccc12)C(=O)N[C@@H](CCC(=O)C=[N+]=[N-])C(=O)OC(C)C
Medium: EL4 tumour
Dose: dose not given
Reference: vehicle
test	test system	fold change
refers to: cystine	mouse, EL4 tumour-bearing	4.74
metabolomics, refers to: methionine sulfone	mouse	0.303
refers to: 3-hydroxykynurenine	mouse, EL4 tumour-bearing	0.261
refers to: cinnamoylglycine	mouse, EL4 tumour-bearing	2.08
metabolomics, refers to: uridine 3'-monophosphate	mouse	3.33
metabolomics, refers to: guanosine 3'-monophosphate	mouse	2.56
metabolomics, refers to: phenol sulfate	mouse	2.81
refers to: 1-methylhistidine	mouse, EL4 tumour-bearing	0.444

Block 4
SMILES: CC(C)S(=O)(=O)c1cc2c(Nc3ccc4sc(C5CCCC5)nc4c3)ccnc2cc1OCCO
cell line	test	conditions	viability
L929 RIPK3 knockout		25 µM, with: zVAD	68.7% and 69.4% and 73.3% and 73.1% and 75%
L929 RIPK3 knockout		12.5 µM	81.4% and 84.5% and 88.9% and 84.6% and 83.6%
L929	CCK-8	6.25 µM	93% and 90.2% and 86.5% and 89.9% and 84.9%
L929	necroptosis protection, CCK-8	3.333 µM, with: TNF-α plus zVAD	91.2%
L929	CCK-8	25 µM, with: zVAD	59.9% and 77.3% and 78.3%
L929 RIPK3 knockout		100 µM	18.2% and 18.3% and 11.2% and 11.1%
L929 RIPK3 knockout		1.563 µM	98% and 97.5% and 90.7% and 92.6% and 100%
L929	CCK-8	1.563 µM	100% and 95.8% and 99.5% and 97.7% and 94.9%
L929 RIPK3 knockout		25 µM	69.4% and 75.1% and 74.6% and 72.7% and 72.6%
L929	CCK-8	6.25 µM, with: zVAD	90.1% and 92.5% and 97.6% and 96.4% and 88.7%

Block 5
SMILES: COc1cc(C(=O)N2CCC(N3CCN(C)CC3)CC2)ccc1Nc1ncc2c(n1)N(C)c1ccccc1C(=O)N2C
Effect on: kinase activity
target	conditions	remaining activity
HER4	1 µM	68 ± 1%
PKD1	1 µM	74 ± 8%
NEK2a	1 µM	92 ± 5%
CHK2	10 µM	13 ± 1%
ERK2	1 µM	83 ± 3%
TAK1	1 µM	85 ± 12%
PDK1	10 µM	83 ± 11%
S6K1	10 µM	81 ± 17%

Repeated from above (block 2):
Compound	inhibition
C[C@]12CC[C@@H](O)C[C@@H]1CC[C@@H]1[C@@H]2CC[C@]2(C)C(=O)CC[C@@H]12	-38%
CC(=O)O[C@H]1C(C)=C[C@]23C(=O)[C@@H](C=C(C)[C@@H](OC(=O)c4ccccc4)[C@]12O)[C@H]1[C@@H](C[C@H]3C)C1(C)C	-17%
COc1cc2c(cc1O)C[C@@H]1NCCc3cc(OC)c(O)c-2c31	-21%
